Measured values collected from several papers.
Each numbered part is a random draw from the data of one study; scales do not carry over between parts. Values joined by “and” are separate records of one study, mostly repeats; a detail may differ. Changes are numbered by the printed parent chain.

Series 1
Target: PABPC1L2, full length, GST fusion (mouse, UniProt A0ABA7IW68)
Method: RNAcompete
Form: RNA
Matrix: in vitro
Concentration: 20 nM
Notes: 7-mer, probes averaged, single round
Relative to: mean of 7-mers
Direction: higher = stronger binding
Construct (chain): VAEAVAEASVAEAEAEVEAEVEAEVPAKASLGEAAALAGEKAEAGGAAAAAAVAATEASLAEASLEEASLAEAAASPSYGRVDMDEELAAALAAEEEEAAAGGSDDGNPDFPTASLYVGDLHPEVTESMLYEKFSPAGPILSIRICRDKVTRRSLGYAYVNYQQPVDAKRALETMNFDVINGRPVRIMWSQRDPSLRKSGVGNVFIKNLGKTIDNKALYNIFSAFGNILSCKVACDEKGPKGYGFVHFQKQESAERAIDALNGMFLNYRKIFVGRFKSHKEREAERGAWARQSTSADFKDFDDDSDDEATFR
Sequence	7-mer Z-score
GGGCGGC	0.329
GCAAGAA	0.466
GGGCUAU	0.115
AUUCUGG	-0.135
ACGUUCA	-0.22
UGUCUGA	-0.0391

Series 2
Target: Phosphate system positive regulatory protein PHO4, full length, GST-tagged (PHO4, Saccharomyces cerevisiae, UniProt P07270, residues 1-312)
Method: competition protein-binding microarray
Form: double-stranded DNA, one strand shown
Matrix: in vitro
Concentration: 2 µM
Notes: whole 60-bp probe, lowest competitor level
Together with: Cbf1 competitor, 0.05 µM
Direction: higher = stronger binding
Target sequence (chain): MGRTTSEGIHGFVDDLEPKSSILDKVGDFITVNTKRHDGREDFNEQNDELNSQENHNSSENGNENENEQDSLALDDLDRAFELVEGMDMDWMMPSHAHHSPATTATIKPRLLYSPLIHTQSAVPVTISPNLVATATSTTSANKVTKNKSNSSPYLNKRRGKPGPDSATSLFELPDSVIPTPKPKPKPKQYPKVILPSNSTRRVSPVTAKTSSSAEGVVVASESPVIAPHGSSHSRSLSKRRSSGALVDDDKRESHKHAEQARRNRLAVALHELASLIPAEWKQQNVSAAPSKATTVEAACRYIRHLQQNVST
Sequence	fluorescence intensity [a.u.]
CCAAGTGGATATTTTCACGTTTGCGCGCTGCGTCTTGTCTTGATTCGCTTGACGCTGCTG	5380
TGTCAATGTCGCCGTCACATGGGAAGAAAGGTGGGAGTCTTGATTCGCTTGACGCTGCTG	9650
AACAAGTATTGAATGCACACGCAAATAGCTTAGGCCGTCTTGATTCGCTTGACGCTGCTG	6220
TAACTAATCAAATGTATCGTGACGGGGTGTTGCATCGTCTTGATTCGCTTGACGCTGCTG	5710
TGCGCAACAACTTGTACTGTGGGTGTATGTCTAGAAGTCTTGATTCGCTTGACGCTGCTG	4500
CGTCCTAGTGATTGTCCCGTGGGTGCCATGAGGAAGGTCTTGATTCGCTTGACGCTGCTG	10700
CCAAGCAGCAGTTTACGCGTGTCCAAAAAATGCTGTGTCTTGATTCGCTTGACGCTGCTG	8740
CTTTCCCGATCTTGCCACGTGGGTGTAGCACATTTGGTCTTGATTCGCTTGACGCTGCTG	16400
AATAAGTTCATCGACCACGCACACTTCACCAAGTTAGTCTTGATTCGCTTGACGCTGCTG	8250

Series 3
Target: CCND2, cyclin fold, Cln2 fusion (human)
Method: yeast growth competition, sequencing
Matrix: yeast
Notes: weak parent motif
Relative to: not given
Direction: higher = stronger binding
Starting sequence: BRCA2 docking peptide (human); PSIKRNLLNEFDR
Change	normalised enrichment score
PSIKRNNLNEFDR [L7N]	-0.782
PSIKRNLLREFDR [N9R]	0.144
PSIKRNLLNEADR [F11A]	0.637
PSIKRNWLNEFDR [L7W]	-0.132
PSIKRNLLSEFDR [N9S]	0.345
PSIKRNLLNEFTR [D12T]	0.248
NSIKRNLLNEFDR [P1N]	0.629
QSIKRNLLNEFDR [P1Q]	0.725
PSIKRPLLNEFDR [N6P]	0.608

Further values, each from its own experiment
Molecule	target	test	test system	conditions	how to read	measurement	result
PhoQ, residues 284 288 289 292 302 303 SVTLVV	PhoP, residues 12 14 15 18 19 LWHCS (Escherichia coli, UniProt P23836)	Sort-seq, refers to: YFP reporter	E. coli	PhoQ-PhoP variant library, together with: 10 µM Mg2+	relative to: high Mg2+ state, higher = stronger signaling	fold induction	7.33 and 6.58

For quick reference, copied from above (series 2):
Sequence	fluorescence intensity [a.u.]
TAACTAATCAAATGTATCGTGACGGGGTGTTGCATCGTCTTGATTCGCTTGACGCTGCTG	5710
TGCGCAACAACTTGTACTGTGGGTGTATGTCTAGAAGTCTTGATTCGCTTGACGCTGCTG	4500
